Assay results gathered from unrelated publications.
Compare with care: the assays were run in different laboratories. ± marks the error that the study gave.
Target: Cytochrome P450 2D6 (CYP2D6, Homo sapiens, UniProt P10635)

C=CC(=O)Nc1cc(Nc2nccc(-c3cn(C)c4ccccc34)n2)c(OCC(F)(F)F)nc1N(C)CCN(C)C  remaining activity (dextromethorphan O-demethylation, inhibitor; human liver microsomes; 10 µM): 112%
CCN(CC)CCOc1ccc(-c2nnn(Cc3ccc(OC)cc3)c2N)cc1  inhibition (enzyme activity, inhibitor; concentration not given): no inhibition
CNC(=O)Oc1cc(C)c([S+](C)[O-])c(C)c1 (stereo not drawn)  inhibition (inhibitor; human liver microsomes; 2 µM, pH 7.4, added: dextromethorphan): < 0%
Nc1nc(Nc2ccc(Cl)cc2)nn1S(=O)(=O)c1ccc2ccccc2c1  IC50 (20 (unit not given), pH 7.4): > 50 µM
COc1ccc2c(c1)[C@]13CCCC[C@@H]1[C@H](C2)N(C)CC3  AUC (human, plasma; oral, dose not given, day 12, added: fluoxetine): 1.85 ± 0.8 µM·h
Cc1ccc2nc(C)c(C(=O)NCc3ccc(C(F)(F)F)cc3)n2c1  IC50 (inhibitor): > 20 µM
CCCS(=O)(=O)c1ccc2[nH]c(NC(=O)OC)nc2c1  inhibition (inhibitor; human liver microsomes; 2 µM, pH 7.4, added: dextromethorphan): < 0%
CC[C@@H]1CN2CCc3c([nH]c4cccc(OC)c34)[C@@H]2C[C@@H]1/C(=C\OC)C(=O)OC  remaining compound (recombinant enzyme metabolism; 2 µM, 60 min): 82%
Cc1cn2c(C(=O)NCc3ccc(C(F)(F)F)cc3)c(C)nc2s1  IC50 (inhibitor): > 20 µM

A few entries again:
COc1ccc2c(c1)[C@]13CCCC[C@@H]1[C@H](C2)N(C)CC3  AUC (human, plasma; oral, dose not given, day 12, added: fluoxetine): 1.85 ± 0.8 µM·h
